{"data": "Results collected from several papers", "note": "Numbered parts are unrelated; each lists some results of a single study."}
{"data": "Study 1", "target": "Histone acetyltransferase KAT6A, winged helix 2, GST fusion (KAT6A, Homo sapiens, UniProt Q92794, residues 85-181)", "technique": "protein binding microarray", "form": "double-stranded DNA, one strand shown", "matrix": "in vitro", "concentration": "not given", "notes": "8-mer, flanks averaged, mean of 2 arrays, mostly near background", "baseline": "not given", "direction": "higher = stronger binding", "Residues (chain)": "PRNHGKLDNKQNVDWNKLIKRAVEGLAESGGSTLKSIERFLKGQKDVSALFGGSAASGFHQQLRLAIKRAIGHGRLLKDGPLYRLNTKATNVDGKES"}
{"Strand": "AACAGGGA", "E-score": 0.0002}
{"Strand": "AGAAACCG", "E-score": -0.0887}
{"Strand": "CGAGGTGC", "E-score": 0.0243}
{"Strand": "AGCGGCAC", "E-score": -0.0963}
{"Strand": "GGCGCCCC", "E-score": 0.213}
{"Strand": "AGGTAAAA", "E-score": 0.0315}
{"Strand": "CAGGACTA", "E-score": -0.114}
{"Strand": "AAAGTCCG", "E-score": 0.0341}
{"Strand": "CCCGTTAG", "E-score": -0.0239}
{"Strand": "AGGCTACG", "E-score": -0.0824}
{"Strand": "GCTGACGA", "E-score": 0.0387}
{"Strand": "CTATCGGA", "E-score": 0.0249}
{"Strand": "AAGAGGGG", "E-score": -0.0226}
{"Strand": "CGATAGAC", "E-score": -0.144}
{"Strand": "CGAATACC", "E-score": -0.0852}
{"Strand": "ACTGTCCG", "E-score": 0.0486}
{"Strand": "CAATGCCC", "E-score": -0.0504}
{"Strand": "ACGGTAGT", "E-score": -0.124}
{"Strand": "GCTAAGCA", "E-score": 0.117}
{"data": "Study 2", "target": "Sal-like protein 4, full length isoform B (SALL4, Homo sapiens, UniProt Q9UJQ4-2, residues 1-616)", "technique": "universal PBM", "form": "double-stranded DNA, one strand shown", "matrix": "in vitro", "concentration": "not given", "notes": "8-mer, flanks averaged, mean of replicates", "direction": "higher = stronger binding"}
{"Strand": "AATTGCGG", "E-score": 0.096}
{"Strand": "ATAGGAAG", "E-score": 0.158}
{"Strand": "GACCTCTC", "E-score": -0.0845}
{"Strand": "CGGCAGTA", "E-score": -0.16}
{"Strand": "AACCTGCT", "E-score": -0.188}
{"Strand": "ACCATGTC", "E-score": 0.0222}
{"Strand": "CGGCCGGC", "E-score": -0.367}
{"Strand": "GTGAAAAC", "E-score": -0.0276}
{"Strand": "CAATCCCC", "E-score": 0.0623}
{"Strand": "ACACGGCC", "E-score": -0.204}
{"Strand": "CAGCGATG", "E-score": -0.163}
{"Strand": "TTTCCAAA", "E-score": 0.234}
{"Strand": "CTAGCCCA", "E-score": -0.117}
{"Strand": "AGTAGTAG", "E-score": 0.0596}
{"Strand": "ACTCTTAG", "E-score": -0.0498}
{"Strand": "AGGAGCAG", "E-score": -0.276}
{"Strand": "TCGAGCCA", "E-score": -0.0961}
{"data": "Study 3", "target": "Interferon regulatory factor 7, full length, phosphomimetic (IRF7, Homo sapiens, UniProt Q92985, residues 1-503, S471D/S472D/S475D/S476D/S477D/S483D/S484D/S487D)", "technique": "protein-binding microarray", "form": "double-stranded DNA, one strand shown", "matrix": "in vitro", "concentration": "2200 nM top", "notes": "60-bp whole probe", "added": "salmon DNA 0.4 mg/ml", "baseline": "random background probes", "direction": "higher = stronger binding", "all sequences stand within": "GCCTAGCAC … GTCTTGATTCGCTTGACGCTGCTG", "Target sequence (chain)": "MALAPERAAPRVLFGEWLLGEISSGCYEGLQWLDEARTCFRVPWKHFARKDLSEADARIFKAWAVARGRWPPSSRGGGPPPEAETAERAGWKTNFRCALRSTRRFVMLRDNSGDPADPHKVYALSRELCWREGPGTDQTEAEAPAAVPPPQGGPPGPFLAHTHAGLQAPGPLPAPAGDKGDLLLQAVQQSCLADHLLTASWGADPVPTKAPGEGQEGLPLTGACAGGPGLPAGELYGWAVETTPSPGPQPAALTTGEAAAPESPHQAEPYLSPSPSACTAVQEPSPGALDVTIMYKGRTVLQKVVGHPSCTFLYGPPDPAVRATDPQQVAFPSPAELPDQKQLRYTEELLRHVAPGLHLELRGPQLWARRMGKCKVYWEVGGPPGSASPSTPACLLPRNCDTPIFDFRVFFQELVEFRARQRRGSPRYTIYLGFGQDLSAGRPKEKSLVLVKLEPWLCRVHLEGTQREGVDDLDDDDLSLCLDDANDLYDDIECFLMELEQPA"}
{"Strand": "GGCGATTTCGGGTATCGAGACGTGCTA", "fitted relative affinity": "2.75 z-score"}
{"Strand": "AGGGAGGTCTCTCCCGACCTGTGCTAG", "fitted relative affinity": "-0.906 z-score"}
{"Strand": "GTAGGTCTCCTTCTCCTTTAGTGCTAG", "fitted relative affinity": "1.19 z-score"}
{"Strand": "TCAACTTTGACTTAAGAACTGTGCTAG", "fitted relative affinity": "-0.0449 z-score"}
{"Strand": "GTGTTTTTCTCCTATTTAAGAGTGCTA", "fitted relative affinity": "2.26 z-score"}
{"Strand": "GACGGTTTCGGACTGGCGACGTGCTAG", "fitted relative affinity": "3.79 z-score"}
{"Strand": "TTGGATTTCGGGACTGGATTAGTGCTA", "fitted relative affinity": "1.32 z-score"}
{"Strand": "GACGATCTCAGTTGCGAGACGTGCTAG", "fitted relative affinity": "0.374 z-score"}
{"Strand": "GTAGGTTTCGGTTTCGGTTAGTGCTAG", "fitted relative affinity": "16.8 z-score"}
{"Strand": "GGTTTTCTAATGTTTTTTAAAGTGCTA", "fitted relative affinity": "1.45 z-score"}
{"Strand": "TTAGGACTGGGGAATCGGTTAGTGCTA", "fitted relative affinity": "-0.334 z-score"}
{"Strand": "TCACATTTTTTTTCATCACTGTGCTAG", "fitted relative affinity": "1.77 z-score"}
{"Strand": "TTAGATATCATTTTCGATTAGTGCTAG", "fitted relative affinity": "5.61 z-score"}
{"Strand": "TTAGAACTGCTTATCCTTTAGTGCTAG", "fitted relative affinity": "0.4 z-score"}
{"Strand": "TTAGGTTTCGGTCCCGGTTAGTGCTAG", "fitted relative affinity": "5.25 z-score"}
{"Strand": "CTCTTTTTGCTTTCTTTATGGTGCTAG", "fitted relative affinity": "3.89 z-score"}
{"Strand": "TGAGGTTTCCTACTGCTTTAGTGCTAG", "fitted relative affinity": "1.06 z-score"}
{"Strand": "GACTGACTGGACTTTCGGGACGTGCTA", "fitted relative affinity": "2.32 z-score"}
{"Strand": "GACGGTATCGGGTTTGGGGACGTGCTA", "fitted relative affinity": "0.087 z-score"}
{"Strand": "TCCCTTTTCATGCTCTTATAGTGCTAG", "fitted relative affinity": "3.23 z-score"}
{"Strand": "GACGAAATCAGTCTCGAGACGTGCTAG", "fitted relative affinity": "0.343 z-score"}
{"Strand": "TGTACTTTCTATCTCTGTTTGTGCTAG", "fitted relative affinity": "5.64 z-score"}
{"Strand": "CCCCCAGGATTCAATTACCAGTGCTAG", "fitted relative affinity": "-0.708 z-score"}
{"Strand": "TTGTCTTTTCATTTTCTTTAGTGCTAG", "fitted relative affinity": "3.32 z-score"}
{"Strand": "TTAGGACTGGGGCCTGGGTTAGTGCTA", "fitted relative affinity": "-1.23 z-score"}
{"data": "Study 4", "target": "RNA binding protein fox-1 homolog 2, RRM domain, GST-SBP tag (RBFOX2, Homo sapiens, UniProt O43251-10, residues 100-194)", "technique": "RNA Bind-n-Seq", "form": "RNA", "matrix": "in vitro", "concentration": "365 nM", "notes": "natural RNA segment, single round, ends assumed", "baseline": "no-protein control", "direction": "higher = stronger binding", "Construct (chain)": "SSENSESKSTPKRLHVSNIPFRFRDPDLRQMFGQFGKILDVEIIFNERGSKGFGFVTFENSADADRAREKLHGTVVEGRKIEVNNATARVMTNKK"}
{"Strand": "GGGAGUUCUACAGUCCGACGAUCAAUUGUUCUAGUUAGAAAGGGUUCAGGGCAUGGGGAGAGGAGUGGGAAAUUGAUUAAAGGGGCUGUCUCCCAAUGAAAGAGGCAUUCCCAGAAUUUGCUGCAUUUAGAUUUGGAAUUCUCGGGUGCCAA", "RBNS enrichment (R)": 5.56}
{"Strand": "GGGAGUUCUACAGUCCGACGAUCAAAAUGCCUCCAAACAUUUUUCUGUACUCAUACUUAGAUUCACAAUGGUUGUGUAUCUCUAUAAUGUGAAAUAUUUUUUUGUGGUGAUAAAAAGAGGGCCAAGGAGGUAUUGGAAUUCUCGGGUGCCAA", "RBNS enrichment (R)": 0.599}
{"Strand": "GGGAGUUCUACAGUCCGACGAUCUUAAUCGGUGCUUUAUGGAGGCCAGUGUAACGUUACAUGACUCGUUGAGAAAGUUGAGGAAUUUCCUCUACCACCUUUGUUGCUUGAAGAAAAACAUGUCUUUUCAAAAUUGGAAUUCUCGGGUGCCAA", "RBNS enrichment (R)": 0.604}
{"Strand": "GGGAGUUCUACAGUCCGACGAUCCCUGACUCCUGGGCCAUUUCCUAAUGGUACUGUAAGCCAAGUGGCUCGGCUUCUGCCUCUGUUUCCAAGCCCACCCCUUCCCGGAGGGAUAGGGACGGGUGCUUUCCUCUUGGAAUUCUCGGGUGCCAA", "RBNS enrichment (R)": 0.289}
{"Strand": "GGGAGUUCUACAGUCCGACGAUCCAGCAAAAACAGUGCCUCUUUGUGCACAAUCCUUUUAAAGUAGCAUUCUUACUUGUUAGAAAUGUAGAAUGAACUUUGUUUGUAAUCCUUAAAUUAAAAUGUGGUAAGUAUGGAAUUCUCGGGUGCCAA", "RBNS enrichment (R)": 0.937}
{"Strand": "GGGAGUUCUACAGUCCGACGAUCGAGUCAGUGUGUCAUUUCAGUUUAACUGGAUGAACUGUCAAAUAAAGAAAUGCAGAAUGAAAACAAACUGUCUCUUACUUGUCCGUGAAGCGUGCGGCUUGGGUGUUGUAUGGAAUUCUCGGGUGCCAA", "RBNS enrichment (R)": 0.425}
{"Strand": "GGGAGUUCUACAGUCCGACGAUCCUCCGACAUGAUCUACAUCCGCUGAAGAGUCUCGCUGUGGCCUCUGUCAGGGAUCCCUGGUGGAAGGGGAGGGGAGGGAGGAACCCAUAUAGUCAACUCUUGAUUAUCCAUGGAAUUCUCGGGUGCCAA", "RBNS enrichment (R)": 0.32}
{"Strand": "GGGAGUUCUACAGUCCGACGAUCGUUACGCGUGCCAUGAGAACCCACUCUACACCACGACGCUGGUGCCUCAGUGUUGGCCAAACUCUGGAGUCACUGACUGGUUUGACUUUCAUACGGUGAAUAUGCAUUUGUGGAAUUCUCGGGUGCCAA", "RBNS enrichment (R)": 0.725}
{"Strand": "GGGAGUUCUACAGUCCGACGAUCGAGUCCCUUAACCCCUCUGAGCCCGGGUCUCUUCAUUAGUUGAAAGGGAUAGUAAUACCUACUUGCAGGUUGUUGUCAUCUGAGUUGAGCACUGGUCACAUUGAAGGUGCUGGAAUUCUCGGGUGCCAA", "RBNS enrichment (R)": 0.702}
{"Strand": "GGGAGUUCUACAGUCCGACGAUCGUUUAUAUACAUUUGCCCUAACAUAGGAAGUAUUGUGUAGUUUCUCAUUGUCAUUUUAUCUGUAUCAAGUAUCUUUUUUUAAAUUGUUAAAUAAAGUCAGCUAGGACUGUUGGAAUUCUCGGGUGCCAA", "RBNS enrichment (R)": 0.493}
{"Strand": "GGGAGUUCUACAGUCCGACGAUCGAAGAGGUUGAGUUUGCUGCCAGGAUUCAGAUCAGCCCUUCCCAGGGUCUGCAGGUGUCACAUGAUCACAGUUCAGCGGGAGGCUUUCCGUACCCACACUGGCUGUAGCCUGGAAUUCUCGGGUGCCAA", "RBNS enrichment (R)": 0.811}
{"Strand": "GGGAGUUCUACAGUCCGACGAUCGAAGAUAUUUAAUAUAUGAAACUCUCAUAACUGUCAUUAACAGUAUUAAUUAGGUCUAAAUACCGUGGAGCAGCCCUGAUAUCAUGCUGACAGCUUACGUGUCAGAGGGCUGGAAUUCUCGGGUGCCAA", "RBNS enrichment (R)": 0.468}
{"note": "Repeated from above (study 1):"}
{"Strand": "CGAGGTGC", "E-score": 0.0243}
{"Strand": "AGCGGCAC", "E-score": -0.0963}
{"Strand": "GGCGCCCC", "E-score": 0.213}
{"Strand": "AGGTAAAA", "E-score": 0.0315}
{"Strand": "CAGGACTA", "E-score": -0.114}
{"Strand": "AAAGTCCG", "E-score": 0.0341}
